Results collected from several papers.
Protocols differ between the studies behind these lines.
Organism: Escherichia coli

Structure (SMILES)	assay	system	setting	MIC
CC[C@H](C)[C@H](NC(=O)[C@@H](CCCNC(=N)N)NC(=O)[C@H](CCCNC(=N)N)NC(=O)[C@@H]1CCCN1C(=O)[C@@H]1CCCN1C(=O)[C@H](Cc1c[nH]c2ccccc12)NC(=O)[C@@H]1CCCN1C(=O)[C@H](CCCNC(=N)N)NC(=O)[C@@H]1CCCN1C(=O)[C@H](CC(C)C)NC(=O)[C@H](Cc1ccc(O)cc1)NC(=O)[C@@H]1CCCN1C(=O)[C@@H]1CCCN1C(=O)[C@H](CCCCN)NC(=O)[C@H](CC(=O)O)NC(=O)[C@@H](N)C(C)C)C(=O)N[C@@H](Cc1ccc(O)cc1)C(=O)N[C@@H](CC(N)=O)C(=O)N[C@H](CCCNC(=N)N)C(N)=O	broth microdilution	ATCC 25922	18 h, 37 °C, 25% MHB2	32 µg/mL
CC1(C)[C@H](NC(=O)/C(=N\OC2(C(=O)O)CCCCC2)c2csc(N)n2)C(=O)N1OS(=O)(=O)O	agar dilution	CDC 1001728, NDM-1	–	2 µg/mL
CC[C@H](C)[C@H](NC(=O)[C@@H](CCCNC(=N)N)NC(=O)[C@H](CCCNC(=N)N)NC(=O)[C@H](CCCN)NC(=O)[C@H](Cc1c[nH]c2ccccc12)NC(=O)[C@H](CCCNC(=N)N)NC(=O)[C@@H]1CCCN1C(=O)[C@H](CCCNC(=N)N)NC(=O)[C@@H]1CCCN1C(=O)[C@H](CC(C)C)NC(=O)[C@H](Cc1ccc(O)cc1)NC(=O)[C@@H]1CCCN1C(=O)[C@@H]1CCCN1C(=O)[C@H](CCCCN)NC(=O)[C@H](CC(=O)O)NC(=O)[C@@H](N)C(C)C)C(=O)N[C@@H](Cc1ccc(O)cc1)C(=O)N[C@@H](CC(N)=O)C(=O)N[C@H](CCCNC(=N)N)C(N)=O	broth microdilution	MC4100	18 h, 37 °C, 25% MHB2	8 µg/mL
CC(C)C[C@H](NC(=O)[C@H](CCCCN)NC(=O)[C@H](CC(C)C)NC(=O)[C@H](CCCCN)NC(=O)C1CCC=CCCC(NC(=O)[C@H](CCCCN)NC(=O)[C@H](CC(C)C)NC(=O)[C@H](CCCCN)NC(=O)[C@@H](N)CC(C)C)C(=O)N[C@@H](CCCCN)C(=O)N2CCC[C@@H]2C(=O)NCC(=O)N[C@@H](CCCCN)C(=O)N1)C(N)=O (some centres unmarked)	broth microdilution	ATCC 25922, Mueller-Hinton broth	18 h, 37 °C	16 µM
CC[C@H](C)[C@H](NC(=O)[C@@H](CCCNC(=N)N)NC(=O)[C@H](CCCNC(=N)N)NC(=O)[C@@H]1CCCN1C(=O)[C@@H]1CCCN1C(=O)[C@H](CCCNC(=N)N)NC(=O)[C@@H]1CCCN1C(=O)[C@H](CCCNC(=N)N)NC(=O)[C@@H]1CCCN1C(=O)[C@H](CC(C)C)NC(=O)[C@H](Cc1ccc(O)cc1)NC(=O)[C@@H]1CCCN1C(=O)[C@@H]1CCCN1C(=O)[C@H](CCCCN)NC(=O)[C@H](CC(=O)O)NC(=O)[C@@H](N)C(C)C)C(=O)N[C@@H](Cc1cc(I)c(O)c(I)c1)C(=O)N[C@@H](CC(N)=O)C(=O)N[C@H](CCCNC(=N)N)C(N)=O	broth microdilution	BW25113	18 h, 37 °C, 25% MHB2	16 µg/mL
CC(=O)NC[C@H]1CN(c2ccc(N3CCN(C(=O)CN)CC3)c(F)c2)C(=O)O1	broth dilution	drug-resistant	–	> 200 µM
CCC(CC)c1cc(C2CN3CCC2CC3CNC)nc(-c2ccncc2)n1 (centres unmarked)	microbial growth, broth dilution	ATCC25922	–	64 µg/mL
C[C@H](CS)C(=O)Nc1cccc(-c2nn[nH]n2)c1	–	DH5a pET28-lacUV5-VIM-2	25 µM, no meropenem	> 64 µg/mL
CC[C@H](C)[C@H](N)C(=O)N[C@@H](CCCNC(=N)N)C(=O)N[C@H](C(=O)N[C@@H](Cc1c[nH]c2ccccc12)C(=O)N[C@@H](Cc1ccccc1)C(=O)N[C@H](C(=O)N[C@@H](CCCCN)C(=O)N[C@H](C(=O)N[C@@H](CCCNC(=N)N)C(=O)N[C@@H](CCCCN)C(=O)N[C@@H](CCSC)C(=O)N[C@@H](CCCCN)C(=O)N[C@@H](C)C(=O)N[C@H](C(=O)N[C@@H](Cc1ccc(O)cc1)C(=O)N[C@@H](Cc1c[nH]cn1)C(N)=O)[C@@H](C)CC)C(C)C)[C@@H](C)CC)C(C)C	broth dilution	ATCC 25922, Mueller-Hinton broth	24 h, 37 °C	50 µM
CC[C@H](C)[C@@H]1NC(=O)[C@@H](CC(C)C)NC(=O)[C@H](CCN)NC(=O)[C@@H](NC(=O)[C@@H](CO)NC(=O)[C@@H](NC(=O)[C@H](CCN)NC(=O)c2ccc(-c3ccccc3)cc2)[C@@H](C)O)CCNC(=O)[C@H](CC(C)C)NC(=O)[C@H](CCN)NC(=O)[C@H](CCN)NC1=O	broth microdilution	mcr-1, colistin-resistant	–	4 to 8 µg/mL
CC1(C)[C@H](NC(=O)/C(=N\OCC(=O)N2CCC[C@@H]2C(=O)O)c2nsc(N)n2)C(=O)N1OS(=O)(=O)O	agar dilution	08-85, mcr-1	–	64 µg/mL
CC[C@H](C)[C@H](NC(=O)[C@@H](CCCNC(=N)N)NC(=O)[C@H](CCCNC(=N)N)NC(=O)[C@H](CC(C)C)NC(=O)[C@H](Cc1c[nH]c2ccccc12)NC(=O)[C@H](CCCNC(=N)N)NC(=O)[C@@H]1CCCN1C(=O)[C@H](CCCNC(=N)N)NC(=O)[C@@H]1CCCN1C(=O)[C@H](CC(C)C)NC(=O)[C@H](Cc1ccc(O)cc1)NC(=O)[C@@H]1CCCN1C(=O)[C@@H]1CCCN1C(=O)[C@H](CCCCN)NC(=O)[C@H](CC(=O)O)NC(=O)[C@@H](N)C(C)C)C(=O)N[C@@H](Cc1ccc(O)cc1)C(=O)N[C@@H](CC(N)=O)C(=O)N[C@H](CCCNC(=N)N)C(N)=O	broth microdilution	BW25113	18 h, 37 °C, 25% MHB2	32 µg/mL
CC[C@H](C)[C@H](NC(=O)[C@@H](NC(=O)[C@H](CCCCN)NC(=O)[C@H](CCC(N)=O)NC(=O)[C@@H](NC(=O)[C@H](Cc1c[nH]c2ccccc12)NC(=O)[C@H](CCCCN)NC(=O)[C@H](CCCCN)NC(=O)[C@H](CC(C)C)NC(=O)[C@H](CCCNC(=N)N)NC(=O)[C@H](Cc1ccccc1)NC(=O)[C@@H](N)C(C)C)[C@@H](C)CC)C(C)C)C(N)=O	–	–	24 h, 37 °C, Mueller-Hinton broth, CaCl2 2.5 mM	128 µM
CC[C@H](C)[C@H](NC(=O)[C@@H]1CCCN1C(=O)[C@H](CS)NC(=O)[C@H](Cc1ccc(O)cc1)NC(=O)[C@@H]1CCCN1C(=O)[C@H](CC(C)C)NC(=O)[C@H](CCCNC(=N)N)NC(=O)[C@H](CO)NC(=O)[C@H](Cc1ccc(O)cc1)NC(=O)[C@H](Cc1ccccc1)NC(=O)[C@H](CC(N)=O)NC(=O)[C@H](CCCNC(=N)N)NC(=O)[C@H](CS)NC(=O)[C@H](Cc1ccc(O)cc1)NC(=O)[C@H](CO)NC(=O)CNC(=O)[C@H](CO)NC(=O)[C@@H]1CCCN1C(=O)[C@H](CC(C)C)NC(=O)[C@H](Cc1ccc(O)cc1)NC(=O)[C@H](C)NC(=O)[C@@H]1CCCN1C(=O)[C@H](CCCNC(=N)N)NC(=O)CN)C(=O)N[C@@H](CCCNC(=N)N)C(=O)NCC(=O)NCC(=O)N[C@@H](Cc1c[nH]cn1)C(=O)N[C@@H](CS)C(=O)N[C@@H](CCCNC(=N)N)C(=O)O	broth microdilution	K88, Mueller-Hinton broth	37 °C	141 µg/mL
CC(C)C[C@H](NC(=O)[C@@H](NC(=O)[C@H](CCCCN)NC(=O)[C@H](CCCCN)NC(=O)[C@H](CC(C)C)NC(=O)[C@H](Cc1c[nH]c2ccccc12)NC(=O)[C@H](CCCCN)NC(=O)[C@H](Cc1c[nH]c2ccccc12)NC(=O)[C@H](CC(C)C)NC(=O)[C@H](CCCCN)NC(=O)[C@H](CCCCN)NC(=O)[C@@H](N)C(C)C)C(C)C)C(N)=O	–	–	24 h, 37 °C, Mueller-Hinton broth, FeCl3 4 µM	16 µM
CC1(C)S[C@@H]2[C@H](NC(=O)[C@H](NC(=O)C3=C(O)C(c4ccccc4F)NC3=O)c3ccccc3)C(=O)N2[C@H]1C(=O)O (some centres unmarked)	broth microdilution	Keio mutant JW5195-1	18 h	50 µg/mL
CC(=CC(C)CCCCC(=O)O)C1OC2C=CC1OC(=O)C=CC=CC=CC1OC3CC1OC(C=CCC1OC(CC(O)C1C)C(O)C(O)C=CCCC=CC2)C3C (centres unmarked)	microbial growth	DSM1116	–	3.13 µM
COc1c(NC(=O)c2ccc(NC(=O)c3ccc(NC(=O)[C@H](CC(N)=O)NC(=O)c4ccc(NC(=O)[C@@H](N)Cc5ccccc5)cc4)cc3)c(OC)c2O)ccc(C(=O)O)c1O	–	empty cosmid vector	16 h, 37 °C	4 µg/mL
CC[C@H](C)[C@H](NC(=O)[C@@H](CCCNC(=N)N)NC(=O)[C@H](CCCNC(=N)N)NC(=O)[C@@H]1CCCN1C(=O)[C@@H]1CCCN1C(=O)[C@H](CCCNC(=N)N)NC(=O)[C@@H]1CCCN1C(=O)[C@H](CCCNC(=N)N)NC(=O)[C@@H]1CCCN1C(=O)[C@H](CC(C)C)NC(=O)[C@H](Cc1ccc(O)cc1)NC(=O)[C@H](Cc1c[nH]cn1)NC(=O)[C@@H]1CCCN1C(=O)[C@H](CCCCN)NC(=O)[C@H](CC(=O)O)NC(=O)[C@@H](N)C(C)C)C(=O)N[C@@H](Cc1ccc(O)cc1)C(=O)N[C@@H](CC(N)=O)C(=O)N[C@H](CCCNC(=N)N)C(N)=O	broth microdilution	BW25113	18 h, 37 °C, 25% MHB2	8 µg/mL
CC[C@H](C)[C@H](NC(=O)[C@H](Cc1c[nH]c2ccccc12)NC(=O)c1ccccc1)C(=O)N[C@@H](CCCNC(=N)N)C(=O)N[C@@H](Cc1ccc(O)cc1)C(=O)N[C@@H](CCCCN)C(=O)N[C@@H](Cc1c[nH]c2ccccc12)C(=O)N1CCC[C@@H]1C(=O)N[C@@H](CCCNC(=N)N)C(=O)N[C@@H](CCCCN)C(=O)N[C@H](C(=O)N[C@H](C(=O)N[C@@H](CCCNC(=N)N)C(=O)N[C@@H](Cc1ccc(O)cc1)C(=O)N[C@@H](Cc1c[nH]c2ccccc12)C(=O)N[C@H](C(=O)NCC(=O)N1CCC[C@H]1C(N)=O)[C@@H](C)O)C(C)C)C(C)C	–	DH5α	16 h, 37 °C	> 100 µM

Excerpt of the above:
Structure (SMILES)	assay	system	setting	MIC
CC[C@H](C)[C@H](NC(=O)[C@@H](CCCNC(=N)N)NC(=O)[C@H](CCCNC(=N)N)NC(=O)[C@@H]1CCCN1C(=O)[C@@H]1CCCN1C(=O)[C@H](Cc1c[nH]c2ccccc12)NC(=O)[C@@H]1CCCN1C(=O)[C@H](CCCNC(=N)N)NC(=O)[C@@H]1CCCN1C(=O)[C@H](CC(C)C)NC(=O)[C@H](Cc1ccc(O)cc1)NC(=O)[C@@H]1CCCN1C(=O)[C@@H]1CCCN1C(=O)[C@H](CCCCN)NC(=O)[C@H](CC(=O)O)NC(=O)[C@@H](N)C(C)C)C(=O)N[C@@H](Cc1ccc(O)cc1)C(=O)N[C@@H](CC(N)=O)C(=O)N[C@H](CCCNC(=N)N)C(N)=O	broth microdilution	ATCC 25922	18 h, 37 °C, 25% MHB2	32 µg/mL
CC1(C)[C@H](NC(=O)/C(=N\OC2(C(=O)O)CCCCC2)c2csc(N)n2)C(=O)N1OS(=O)(=O)O	agar dilution	CDC 1001728, NDM-1	–	2 µg/mL
CC[C@H](C)[C@H](NC(=O)[C@@H](CCCNC(=N)N)NC(=O)[C@H](CCCNC(=N)N)NC(=O)[C@H](CCCN)NC(=O)[C@H](Cc1c[nH]c2ccccc12)NC(=O)[C@H](CCCNC(=N)N)NC(=O)[C@@H]1CCCN1C(=O)[C@H](CCCNC(=N)N)NC(=O)[C@@H]1CCCN1C(=O)[C@H](CC(C)C)NC(=O)[C@H](Cc1ccc(O)cc1)NC(=O)[C@@H]1CCCN1C(=O)[C@@H]1CCCN1C(=O)[C@H](CCCCN)NC(=O)[C@H](CC(=O)O)NC(=O)[C@@H](N)C(C)C)C(=O)N[C@@H](Cc1ccc(O)cc1)C(=O)N[C@@H](CC(N)=O)C(=O)N[C@H](CCCNC(=N)N)C(N)=O	broth microdilution	MC4100	18 h, 37 °C, 25% MHB2	8 µg/mL
